Measurements of several laboratories.
Parts stem from different laboratories: compare values within a part only. Substitutions count along the parent as printed.

Series 1
Target: ABI1, truncated, D143A, DHFR fusion (Arabidopsis thaliana)
Method: DHFR PCA, deep sequencing
Medium: yeast
Setting: methotrexate growth selection, single substitutions
Together with: (+)-ABA 2500 µM
Relative to: wild-type fitted maximum
Reading: higher = stronger binding
Parent: PYL1, truncated, DHFR fusion (Arabidopsis thaliana); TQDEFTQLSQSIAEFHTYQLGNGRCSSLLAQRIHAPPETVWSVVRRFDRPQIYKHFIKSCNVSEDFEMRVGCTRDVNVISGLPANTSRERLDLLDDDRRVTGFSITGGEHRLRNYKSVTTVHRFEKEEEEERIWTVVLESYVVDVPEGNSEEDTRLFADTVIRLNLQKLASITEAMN; partner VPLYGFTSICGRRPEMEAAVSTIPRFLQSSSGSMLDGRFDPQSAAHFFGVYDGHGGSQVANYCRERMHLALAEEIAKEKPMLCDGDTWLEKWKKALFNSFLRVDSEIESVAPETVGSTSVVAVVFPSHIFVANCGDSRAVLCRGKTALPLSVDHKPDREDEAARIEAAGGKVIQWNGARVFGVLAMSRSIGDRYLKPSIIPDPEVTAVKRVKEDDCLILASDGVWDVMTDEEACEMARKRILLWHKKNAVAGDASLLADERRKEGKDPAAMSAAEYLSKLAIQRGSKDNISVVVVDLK
`E174C` — result for “relative binding score”: 96.5%.
For `Q31A`, “relative binding score” read 73.3%.
`E14W`: “relative binding score” 76.9%.
`D144Q`: “relative binding score” 86.9%.
`D153K`: “relative binding score” 10.3%.
For `R88P`, “relative binding score” read 35.2%.
`E127V` — result for “relative binding score”: 103%.
`T17K` — result for “relative binding score”: 102%.
`S27E` — result for “relative binding score”: 80.8%.
`T86A`: “relative binding score” 96.1%.
For `D159V`, “relative binding score” read 38.4%.
`N177G` — result for “relative binding score”: 95%.
`D48G` — result for “relative binding score”: 87.4%.
`W41F` — result for “relative binding score”: 75.9%.
Under “relative binding score”, `F157V` is recorded as 90.9%.
For `H110D`, “relative binding score” read 35.1%.
For `N22E`, “relative binding score” read 102%.

Series 2
Organism: Saccharomyces cerevisiae
Effect on: mating pheromone growth arrest
Method: pooled competitive growth deep sequencing
Form: peptide
Strain: no Cln2 overexpression
Setting: peptide tiling library
Reading: direction not given
`RSLKLDGLLEEN` has an enrichment score of 0.103.
With `VLLKRLQDVVSERANH` the enrichment score was -0.209.
With `SDSTVTKLDFDLEP` the enrichment score was 0.235.
`IQKKLRFEDTLEFVGF` has an enrichment score of -0.276.
For `LAKRALKYTD`, the enrichment score was -0.0329.
The enrichment score of `EPKTLFLGAGDFQF` is reported as 0.702.
`CFRCLLFSFSGRSGVE` has an enrichment score of 0.077.
The enrichment score of `LKGRRLVFDN` is reported as 0.287.
`RVSGLLSWTLSRVLWL` has an enrichment score of -0.682.
The enrichment score of `ALLRRLQDVANDRGSH` is reported as 0.233.

Series 3
Target: RNA binding protein fox-1 homolog 2, RRM domain, GST-SBP tag (RBFOX2, Homo sapiens, UniProt O43251-10, residues 100-194)
Method: RNA Bind-n-Seq
Form: RNA
Medium: in vitro
Tested at: 365 nM
Setting: natural RNA segment, single round, ends assumed
Relative to: no-protein control
Reading: higher = stronger binding
Construct (chain): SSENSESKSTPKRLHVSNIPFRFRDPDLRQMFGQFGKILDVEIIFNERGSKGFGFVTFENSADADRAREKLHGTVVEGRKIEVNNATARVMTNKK
For `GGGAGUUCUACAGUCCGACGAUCGCUUGACUGGUUUGAGUUCCCGAGGCCAAGGGGAAGCUUUAGCUUUGCUCUGCUUUUGAACCAGUGUUGGGGGAUUCCCUGUCGUGCUGGGUUGGGACUGUGGAGGCGGCUGGAAUUCUCGGGUGCCAA`, “RBNS enrichment (R)” read 0.181.
For `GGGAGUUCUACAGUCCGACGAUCGCUCCUCUCAGCAUGAGGUGGAGCAGUGACCAGGUGGAGCAGUGACCAGGACGCCUCUGGCCCAGUGCUGCCCAGCCUCCCCGCCCGCUCCCAGGCGCCCCAUGUCCUCAUGGAAUUCUCGGGUGCCAA`, “RBNS enrichment (R)” read 1.26.
For `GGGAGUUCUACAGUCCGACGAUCAACUGCAUGCACUUCUCUCCCCAUCGCUCCACAACCUGAAACCGAGAAGGAGUUGCUGACCAGUGCCCACCCCGGCAGCCCGGGAGGAACACAGGCAGCUCCUUUCCCUUUGGAAUUCUCGGGUGCCAA`, “RBNS enrichment (R)” read 2.21.
`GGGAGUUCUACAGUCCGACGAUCUUAGAAACCUCGUGGGCAGAAGCAUCGAACGACCUCUGAGUCACCCUUAGUCUCCAAGGUCAUCACCCCACCCACUCCCAUCAGUGUGGGCCUUGCUGCCAUUCCAGUCAUGGAAUUCUCGGGUGCCAA` — result for “RBNS enrichment (R)”: 0.286.
`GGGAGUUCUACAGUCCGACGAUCAGCAGAACCUGCACACAGGACAGCGGGAAAAAUCGAUGAGCGCCACCUCUUUAAAAACUCACUUACGUUUGUCCUUUUUCACUUUGAAAAGUUGGAAGGAUCUGCUGAGGUGGAAUUCUCGGGUGCCAA`: “RBNS enrichment (R)” 0.43.
`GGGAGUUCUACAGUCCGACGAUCGGUAUCCACCUUCAUGAUUUUAACUGACCCAUAACAAUGUUGUCAGCAGUAUAGGACUGUUGAACAGCCUGGUGUGUCAGGACCCCCAAAUGUCACUUCUGCCUAAAGCAUGGAAUUCUCGGGUGCCAA`: “RBNS enrichment (R)” 1.26.
For `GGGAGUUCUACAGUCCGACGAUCGGUACAGAAUAAUUCUUCGUUGUGUGGCACUAACCCACACACUGCAGGACAUCGUUCUCCCUGGCUGCAUCCACUCAGUGCUGGGAGUAGUCCCCAGUUAUUAUGAAACCUGGAAUUCUCGGGUGCCAA`, “RBNS enrichment (R)” read 0.414.
For `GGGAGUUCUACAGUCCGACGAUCUGGUGAGGAGAAGUCGCCAUUGAGCACACAACCUCCACCAGACUGCCAUGGCCCCGAACCUGCAAUUCCAUCCUAGCGCAGAAGCAUGUGCCUGCCACCUGCUGCCCCUGUGGAAUUCUCGGGUGCCAA`, “RBNS enrichment (R)” read 8.86.

Series 4
Target: Ras GTPase-activating protein-binding protein 1, RRM domain (G3BP1, Homo sapiens, UniProt Q13283)
Sequence of UniProt Q13283 (whole entry, looked up): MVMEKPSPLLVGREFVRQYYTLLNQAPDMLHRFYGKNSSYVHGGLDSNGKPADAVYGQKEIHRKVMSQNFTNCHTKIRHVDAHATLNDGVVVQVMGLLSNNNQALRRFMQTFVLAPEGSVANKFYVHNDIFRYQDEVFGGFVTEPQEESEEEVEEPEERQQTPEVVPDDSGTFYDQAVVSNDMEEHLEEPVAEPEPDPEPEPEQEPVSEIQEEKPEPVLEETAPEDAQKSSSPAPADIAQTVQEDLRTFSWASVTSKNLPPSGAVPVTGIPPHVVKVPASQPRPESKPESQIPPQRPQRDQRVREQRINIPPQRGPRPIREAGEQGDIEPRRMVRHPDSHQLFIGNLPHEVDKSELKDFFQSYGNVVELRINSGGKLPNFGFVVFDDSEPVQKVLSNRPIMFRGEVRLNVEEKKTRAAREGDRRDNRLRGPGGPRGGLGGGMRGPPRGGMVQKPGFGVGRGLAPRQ
Method: RNA Bind-n-Seq
Form: RNA
Medium: in vitro
Tested at: 1 µM
Setting: whole 134-nt RNA, ends assumed
Together with: 150 mM KCl
Relative to: input library
Reading: higher = stronger binding
The log2 enrichment of `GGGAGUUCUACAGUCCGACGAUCAAGUCCUGUGCUACACAUCGUAUGUACCGAAUCGGGUGGGUUUUUGGGUUUUUGGGAAAGUAUUAUGUUACGCCGUUCGGAUCUGCACUUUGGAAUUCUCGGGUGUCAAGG` is reported as 0.325.
With `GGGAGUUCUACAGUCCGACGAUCAGUCCUGUGCUACACAUCGUAUGUACCGAAUCGGGAGGGAAAAAGGGAAAAAAAGGGAAAGUAUUAUGUUACGCCGUUCGGAUCUGCACUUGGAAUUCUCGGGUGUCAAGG` the log2 enrichment was 0.454.
`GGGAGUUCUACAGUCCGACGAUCGCAGGAAGUAAAAACAAAUGGAAAUGAAACGGAUAGUGGCAGGGGUGGGGGUUGCUAAGGAAAGGGUGGGAUGGGAGUGGGUAAAGAGUUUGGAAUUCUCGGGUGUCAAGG` gave a log2 enrichment of 1.15.
`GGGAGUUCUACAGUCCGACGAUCUGGGAGGUGGAUUUUGUUUAUUUGUUUAGCUCAUUUCCAGGGGUGGGAAUUUUUUUUUAAUAUGUGUCAUGAAUAAAGUUGUUUUUGAAAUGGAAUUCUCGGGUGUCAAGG` gave a log2 enrichment of 1.35.
`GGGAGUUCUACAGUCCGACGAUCUGUGGAGGAGACGGCCGACUCGACGCUGUGCCACAUCCUGAACCUGUACCGGCGGGCCACCUGGCUGCACCAGGCGCUGCGGGAGGGCACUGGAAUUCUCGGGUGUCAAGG` has a log2 enrichment of -0.514.
With `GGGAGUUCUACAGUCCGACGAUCCAAGUCCUGUGCUACACAUCGUAUGUACCGAAUCGGAAAAGGAAAAGGGGAAAAGGAAAGUAUUAUGUUACGCCGUUCGGAUCUGCACUUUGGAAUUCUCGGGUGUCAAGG` the log2 enrichment was -0.139.
The log2 enrichment of `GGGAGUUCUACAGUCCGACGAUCCCUGUGCUACACAUCGUAUGUACCGAAUCGGGAAAAAAAGGGAAAAAAAGGAAAAAAAGGGAAAGUAUUAUGUUACGCCGUUCGGAUCUGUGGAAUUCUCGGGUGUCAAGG` is reported as -0.0106.
For `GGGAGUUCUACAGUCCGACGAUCCCUUUUUGAGAAGGCCGGACCCAUUUGGGAUCUACGUCUUAUGAUGGAUCCACUGUCCGGUCAGAAUAGAGGGUAUGCAUUUAUCACCUUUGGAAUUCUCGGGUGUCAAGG`, the log2 enrichment was -0.288.
`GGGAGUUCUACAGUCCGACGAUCGUCCUGUGCUACACAUCGUAUGUACCGAAUCAAACCCCCCCAAACCCCCAAACCCAAAAAAGUAUUAUGUUACGCCGUUCGGAUCUGCACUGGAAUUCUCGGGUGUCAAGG` gave a log2 enrichment of -0.154.
